Assay results from different studies.
Compare with care: the assays were run in different laboratories. ± gives the spread as reported.

SMILES | cell line | assay | setting | how to read | measurement | result
CC[C@H]1CN2CCc3cc(OC)c(OC)cc3[C@@H]2C[C@@H]1C[C@@H]1c2cc(OC)c(OC)cc2CCN1C(=O)OCc1ccc(NC(=O)[C@@H]2CCCN2C(=O)[C@H](C)NC(=O)[C@H](CCC(N)=O)NC(=O)[C@H](CC(C)C)NC(=O)[C@H](CCCCN)NC(=O)[C@H](CO)NC(=O)[C@H](CO)NC(=O)[C@H](Cc2c[nH]cn2)NC(C)=O)cc1 | LNCaP | cell viability, MTT | – | reference: compound over emetine | IC50 ratio | ~24 fold
C[C@@H](O)[C@H](NC(=O)[C@@H]1CSSC[C@H](NC(=O)[C@@H](Cc2ccccc2)NC(=O)CN2CCCN3CCN(CCCN(CP(=O)(O)O)CC3)CC2)C(=O)N[C@@H](Cc2ccc(O)cc2)C(=O)N[C@H](Cc2c[nH]c3ccccc23)C(=O)N[C@@H](CCCCN)C(=O)N[C@@H]([C@@H](C)O)C(=O)N1)C(=O)O [copper-64 labelled] | AR-42J | – | 4 nM, within 15 min | reference: added activity/mg protein | cell surface binding | 5.2 ± 0.03%
Cc1cc(C)c(-n2ccn(-c3c(C)cc(C)cc3C)c2=[Se])c(C)c1.[Cl][Au] | LoVo MDR | MTT | – | reference: LoVo MDR over LoVo | resistance factor | 1.9
Cc1ccc2c(Nc3ccc4ccccc4n3)c3c(nc2c1)CCCC3 | SH-SY5Y | MTT | 50 µM, 1 h pretreatment, 10% FBS, with: H2O2 | – | viability | 57.5 ± 4.36%
COc1ccc2c(c1)C1CC(C)(N2)c2c(C)nc3ccc(OC)cc3c21 (centres unmarked) | HEK293 | – | – | reference: CC50 HEK293 over INDO IC50 | selectivity index | > 165
COC(=O)C1=CO[C@@H](O)[C@@H]2C(Cn3cc(C4(O)CCCCC4)nn3)=CC[C@H]12 | SK-N-SH | neuroprotection, MTT | 0.6 µM, 24 h, with: 250 µM H2O2 | – | viability | 74.1 ± 1.7%
CCOc1c(C(C)(C)O)sc2cnc(Nc3ccc(N4CCC(N5CC6(COC6)C5)CC4)cc3OC)nc12 | human atrial cardiomyocytes | caffeine-induced Ca transient | 1, 3 and 10 µM | reference: vehicle | SR Ca content | increased
CC=C(C)C(=O)OC1C2C3(C)CCC(OC4CC(OC)C(OC5OC(C)C(OC6OC(CO)C(O)C(O)C6O)C(OC)C5O)C(C)O4)CC3CCC23OC32CCC(C(C)=O)C2(C)C1OC(C)=O (centres unmarked) | MDA435/LCC6-MDR1 | cell growth, MDR reversal, SRB | 10 µM, with: paclitaxel | reference: paclitaxel alone over combination | fold reversal of IC50 | 1
COc1ccc(CNc2c(NC3CCN(Cc4ccccc4)CC3)c(=O)c2=O)cc1 | SH-SY5Y | neuroprotection, MTT | 12.5 µM, 24 h pretreatment, with: H2O2 650 µM for 4 h | – | cell survival | 54.6%
COC(=O)C1=CO[C@@H](OC(C)=O)[C@@H]2C(Cn3cc(COCc4ccccc4)nn3)=CC[C@H]12 | SK-N-SH | neuroprotection, MTT | 0.075 µM, 24 h, with: 250 µM H2O2 | – | viability | 79.7 ± 0.4%
CN[C@@H](C)C(=O)N[C@H]1CN(C(=O)Cc2ccccc2)CC[C@H]2CC[C@@H](C(=O)NCc3ccc(Br)cc3)N2C1=O | SK-OV-3 | TNFα-dependent cell killing, trypan blue | 1 µM, 48 h, with: TNFα-blocking antibody 2 µg/mL | – | cell death | inhibited
COC(=O)C1=CO[C@@H](O)[C@@H]2C(Cn3cc(C(O)(c4ccccc4)c4ccccc4)nn3)=CC[C@H]12 | SK-N-SH | neuroprotection, MTT | 0.15 µM, 24 h, with: 250 µM H2O2 | – | viability | 80.9 ± 3%
CC[C@H](C)[C@@H](OC(=O)[C@@H](NC(=O)[C@H](C)OCc1ccccc1)C(C)C)C(=O)N[C@@H](C(=O)O[C@@H](C)C(=O)N[C@H](C(=O)O[C@@H](C(=O)N[C@@H](C(=O)OC(C)(C)C)C(C)C)[C@@H](C)CC)C(C)C)C(C)C | NCI-460 | cell growth or viability | – | – | GI50 | > 10 µg/mL
COC(=O)C1=CO[C@@H](OC(C)=O)[C@@H]2C(Cn3cc(CCN4C(=O)c5ccccc5C4=O)nn3)=CC[C@H]12 | SK-N-SH | neuroprotection, MTT | 0.3 µM, 24 h, with: 250 µM H2O2 | – | viability | 60.8 ± 1.6%
CC(C)CC(O)(CC(C)C)c1cn(C(=O)N2CCCC2)nn1 | mouse T-cells | N-terminal labeled proteins, N-terminal enrichment proteomics, item: CCDC97 | 1 nM, 6 h | reference: DMSO | SILAC ratio | 4.78 ± 0.22
CSCC[C@H](NC(=O)[C@H](CC(C)C)NC(=O)[C@H](Cc1c[nH]cn1)NC(=O)CNC(=O)[C@@H](NC(=O)[C@H](C)NC(=O)[C@H](Cc1c[nH]c2ccccc12)NC(=O)[C@H](CCC(N)=O)NC(=O)CCCCCNC(=O)CCN(CCNC(=O)c1ccc(F)cc1)CCC(=O)NCCCC[C@@H]1NC(=O)[C@@H](Cc2ccc(O)cc2)NC(=O)[C@H](CC(=O)O)NC(=O)CNC(=O)[C@H](CCCNC(=N)N)NC1=O)C(C)C)C(N)=O [fluorine-18 labelled] | PC-3 | – | 15 min, 37 °C | reference: added radioactivity | cellular uptake | 3.9 ± 0.16%
[N]#[Os]([Cl])([Cl])[Cl].c1ccc(-c2ccnc3c2ccc2c(-c4ccccc4)ccnc23)cc1 | A2780 | immunoblot, item: phospho-eIF2α and CHOP | concentration not given, 72 h | – | protein level | increased
COC(=O)C1=CO[C@@H](OC(C)=O)[C@@H]2C(Cn3cc(CN4C(=O)c5ccccc5C4=O)nn3)=CC[C@H]12 | SK-N-SH | neuroprotection, MTT | 0.6 µM, 24 h, with: 250 µM H2O2 | – | viability | 58.2 ± 1.7%
CCCc1cc(OC)c2c(c1)OCO2 | SK-OV-3 | cell growth or viability, MTT | 72 h | – | GI50 | > 250 µM
Clc1ccc2nc3c(c(Nc4ccc5ccccc5n4)c2c1)CCCC3 | SH-SY5Y | MTT | 50 µM, 1 h pretreatment, 10% FBS, with: H2O2 | – | viability | 48.2 ± 1.57%
COC(=O)C1=CO[C@@H](OC(C)=O)[C@@H]2C(Cn3cc(COCc4ccc(OC)c(OC)c4)nn3)=CC[C@H]12 | SK-N-SH | neuroprotection, MTT | 0.15 µM, 24 h, with: 250 µM H2O2 | – | viability | 71.7 ± 0.06%
CCCCCCCCCCCCCC(=O)NCC(=O)N[C@@H](CCCNC(=N)N)C(=O)N[C@@H](Cc1c[nH]c2ccccc12)C(=O)N[C@@H](CCCCN)C(=O)N[C@H](C(=O)N[C@@H](Cc1ccccc1)C(=O)N[C@@H](CCCCN)C(=O)N[C@@H](CCCCN)C(=O)N[C@H](C(=O)N[C@@H](CCC(=O)O)C(=O)N[C@@H](CCCCN)C(=O)N[C@H](C(=O)NCC(=O)N[C@@H](CCC(N)=O)C(=O)N[C@@H](CC(N)=O)C(=O)N[C@H](C(=O)N[C@@H](CCCNC(=N)N)C(=O)N[C@@H](CC(=O)O)C(=O)NCC(=O)N[C@H](C(=O)N[C@H](C(=O)N[C@@H](CCCCN)C(=O)N[C@@H](C)C(=O)NCC(=O)N1CCC[C@H]1C(=O)N[C@@H](C)C(=O)N[C@H](C(=O)N[C@@H](C)C(=O)N[C@H](C(=O)N[C@H](C(=O)NCC(=O)N[C@@H](CCC(N)=O)C(=O)N[C@@H](C)C(=O)N[C@@H](C)C(=O)N[C@H](C(=O)N[C@H](C(N)=O)[C@@H](C)CC)[C@@H](C)O)C(C)C)C(C)C)C(C)C)C(C)C)[C@@H](C)CC)[C@@H](C)CC)C(C)C)[C@@H](C)CC)[C@@H](C)CC | Jurkat | western blot | concentration not given, 16 h | – | Bcl-2 protein level | decreased
Cc1cccc(C)c1OCC(=O)N[C@@H](Cc1ccccc1)[C@H](C[C@H](Cc1ccccc1)NC(=O)[C@H](C(C)C)N1CCCNC1=O)OC(=O)[C@H](CC(C)C)NC(=O)[C@@H](N)Cc1cnc[nH]1 | MDCK-MDR1, MDCK-MRP2 and Caco-2 cells | transport, inhibitor | 25 µM, unlabelled L-histidine 10 mM, with: [3H]-L-histidine | – | inhibition | ~30%
Cc1nc(C)c(C=[N+]([O-])C(C)(C)C)nc1C | rat primary midbrain neurons | MTT | 100 µM, with: MPP+ | – | cell survival increase | 16.6%
[Cl][Au].[Se]=c1n(C2CCCCC2)ccn1C1CCCCC1 | A-431 | cell growth or viability, MTT | 72 h | – | IC50 | 3.5 µM
COC(=O)C1=CO[C@@H](OC(C)=O)[C@@H]2C(Cn3cc(COCc4ccc(OC)cc4)nn3)=CC[C@H]12 | SK-N-SH | neuroprotection, MTT | 0.075 µM, 24 h, with: 250 µM H2O2 | – | viability | 62.7 ± 0.3%
COC1CC(OC2CCC3(C)C(CCC45OC46CCC(C(C)=O)C6(C)C(OC(C)=O)C(OC(=O)c4ccccc4)C35)C2)OC(C)C1OC1OC(C)C(O)C(OC)C1O (centres unmarked) | MDA435/LCC6-MDR1 | cell growth, MDR reversal, SRB | 10 µM, with: paclitaxel | reference: paclitaxel alone over combination | fold reversal of IC50 | 23
COC(=O)C1=CO[C@@H](O)[C@@H]2C(Cn3cc(-c4ccc(OC)cc4)nn3)=CC[C@H]12 | SK-N-SH | neuroprotection, MTT | 0.3 µM, 24 h, with: 250 µM H2O2 | – | viability | 75.2 ± 2.3%
CN1C(=O)C2(Cc3ccc(CC45SSC(CO)(C(=O)N4C)N(C)C5=O)cc3)SSC1(CO)C(=O)N2C (racemic) | MCF7 cells | microarray | 600 nM, fold change at least 2.0, with: DFO 300 µM | reference: DFO alone | number of up-regulated transcripts | 290
